# Measurements collected from several papers.
# Every numbered part comes from another study and shows a few of its results, in no order. Substitutions count along the parent as printed.

# Block 1
# Target: Ras GTPase-activating protein-binding protein 1, full length (G3BP1, Homo sapiens, UniProt Q13283)
# UniProt Q13283, sequence (whole entry, looked up): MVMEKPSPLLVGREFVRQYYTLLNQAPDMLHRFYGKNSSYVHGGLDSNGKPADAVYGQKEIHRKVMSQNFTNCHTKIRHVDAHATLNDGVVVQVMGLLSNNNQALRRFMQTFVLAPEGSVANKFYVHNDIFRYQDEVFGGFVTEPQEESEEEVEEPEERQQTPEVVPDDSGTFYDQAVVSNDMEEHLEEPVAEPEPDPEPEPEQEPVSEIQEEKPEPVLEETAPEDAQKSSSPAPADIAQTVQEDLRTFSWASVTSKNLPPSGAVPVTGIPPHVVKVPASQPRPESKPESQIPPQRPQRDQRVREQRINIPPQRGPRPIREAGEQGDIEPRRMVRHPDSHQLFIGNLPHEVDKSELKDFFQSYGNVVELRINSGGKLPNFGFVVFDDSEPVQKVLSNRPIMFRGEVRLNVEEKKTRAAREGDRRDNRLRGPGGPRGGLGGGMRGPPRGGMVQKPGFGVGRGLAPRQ
# Technique: RNA Bind-n-Seq
# Molecule type: RNA
# Matrix: in vitro
# Concentration: 200 nM
# Setting: whole 134-nt RNA, ends assumed
# Added: 150 mM KCl
# Relative to: input library
# Direction: higher = stronger binding
Oligonucleotide,log2 enrichment
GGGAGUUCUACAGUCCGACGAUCUUCCUUCCACGACCCCUGAAGAGCAGCGGUGGGUCUGAGCAUCCUAUCUCCAGGAAGCAGGCCAGCAGGCAAGCCAGCUGCCACCUCGUCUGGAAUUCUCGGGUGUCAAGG,0.0608
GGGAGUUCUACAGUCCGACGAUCAUUUGUACACAGACAGGGAAACUGGCAAGCUGAAGGGAGAGGCAACGGUCUCUUUUGAUGACCCACCUUCAGCUAAAGCAGCUAUUGACUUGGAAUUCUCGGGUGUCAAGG,0.0167
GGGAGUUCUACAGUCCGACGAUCGCAGGAAGUAAAAACAAAUGGAAAUGCUGCGGAUAGUGGCAGGGGUGGGGGUUGCUAAGGAAAGGGUGGGAUGGGAGUGGGUAAAGAGUUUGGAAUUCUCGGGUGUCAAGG,1.12
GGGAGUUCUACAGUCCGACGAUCCAAGUCCUGUGCUACACAUCGUAUGUACCGAAUCGGUUUUUGGAAAAAGGUUUGGAAAGUAUUAUGUUACGCCGUUCGGAUCUGCACUUCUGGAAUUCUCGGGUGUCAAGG,-1.37
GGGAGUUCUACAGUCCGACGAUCUCAAGUCCUGUGCUACACAUCGUAUGUACCGAAUCGGUUUGGUUUGGUUUUUGGAAAGUAUUAUGUUACGCCGUUCGGAUCUGCACUUCCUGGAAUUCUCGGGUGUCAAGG,-0.717
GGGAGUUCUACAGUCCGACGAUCUGUGGGUCCUCCUGCACCUGGUGCUGGCCUUCCUGUCCCUGCGCUCUUUGACAGCCUCCUGACCUGUAGGACGAGGGAUUCCUUGUUCUUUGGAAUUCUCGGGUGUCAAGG,-0.596
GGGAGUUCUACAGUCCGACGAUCUCAAGUCCUGUGCUACACAUCGUAUGUACCGAAUCGGUUUGGUUUGGAAAAAGGAAAGUAUUAUGUUACGCCGUUCGGAUCUGCACUUCCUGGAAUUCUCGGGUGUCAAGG,-0.796
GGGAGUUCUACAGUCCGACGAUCUAACUUUAGAGGAGGAUCUGAUGGAUAUGGCAGUGGACGUGGAUUUGGGGAUGGCUAUUAUGGGUAUGGAGGAGGACCUGGAGGUGGCAAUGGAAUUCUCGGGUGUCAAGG,0.413

# Block 2
# Target: CEP164, C-terminal peptide (human)
# Technique: DHFR complementation, deep sequencing
# Matrix: yeast
# Setting: single substitutions, model-inferred values
# Relative to: wild type
# Direction: higher = weaker binding
# Parent: PDZK1, PDZ domain 2 (human); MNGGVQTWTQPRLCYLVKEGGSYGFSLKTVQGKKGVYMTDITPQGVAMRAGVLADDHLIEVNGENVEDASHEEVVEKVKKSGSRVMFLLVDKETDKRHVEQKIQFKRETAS; partner HNRVKVYRF
Variant,binding free energy change [kcal/mol]
Q10G,-0.181
E19H,0.209
G32W,0.2
Q6L,0.0703
Q6F,0.0397
E19G,0.334
M38S,1.5
S70G,-0.0107

# Single results of other studies
# Concentration: not given
# FOXP2 N303T/S325N N-truncated, polyQ removed: Forkhead box protein P2, N-truncated, polyQ removed (FOXP2, Homo sapiens, UniProt O15409, residues 214-715, N303T/S325N)
# UniProt O15409, sequence (214-715, unmodified, looked up): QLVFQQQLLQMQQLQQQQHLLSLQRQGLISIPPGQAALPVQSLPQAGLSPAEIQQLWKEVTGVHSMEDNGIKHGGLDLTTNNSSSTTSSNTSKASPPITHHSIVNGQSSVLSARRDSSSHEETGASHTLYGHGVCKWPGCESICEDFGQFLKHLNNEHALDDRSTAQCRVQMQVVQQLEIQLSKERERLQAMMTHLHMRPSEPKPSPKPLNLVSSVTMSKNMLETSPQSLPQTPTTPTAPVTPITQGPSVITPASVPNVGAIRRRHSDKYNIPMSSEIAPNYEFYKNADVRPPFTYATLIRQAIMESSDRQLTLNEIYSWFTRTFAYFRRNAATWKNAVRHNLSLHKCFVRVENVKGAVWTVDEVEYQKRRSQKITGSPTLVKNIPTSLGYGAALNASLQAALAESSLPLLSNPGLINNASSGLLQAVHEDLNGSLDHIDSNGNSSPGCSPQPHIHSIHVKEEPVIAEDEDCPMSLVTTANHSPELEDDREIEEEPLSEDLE
# P1: PafA, mature enzyme, eGFP fusion (Elizabethkingia meningoseptica, UniProt Q9KJX5); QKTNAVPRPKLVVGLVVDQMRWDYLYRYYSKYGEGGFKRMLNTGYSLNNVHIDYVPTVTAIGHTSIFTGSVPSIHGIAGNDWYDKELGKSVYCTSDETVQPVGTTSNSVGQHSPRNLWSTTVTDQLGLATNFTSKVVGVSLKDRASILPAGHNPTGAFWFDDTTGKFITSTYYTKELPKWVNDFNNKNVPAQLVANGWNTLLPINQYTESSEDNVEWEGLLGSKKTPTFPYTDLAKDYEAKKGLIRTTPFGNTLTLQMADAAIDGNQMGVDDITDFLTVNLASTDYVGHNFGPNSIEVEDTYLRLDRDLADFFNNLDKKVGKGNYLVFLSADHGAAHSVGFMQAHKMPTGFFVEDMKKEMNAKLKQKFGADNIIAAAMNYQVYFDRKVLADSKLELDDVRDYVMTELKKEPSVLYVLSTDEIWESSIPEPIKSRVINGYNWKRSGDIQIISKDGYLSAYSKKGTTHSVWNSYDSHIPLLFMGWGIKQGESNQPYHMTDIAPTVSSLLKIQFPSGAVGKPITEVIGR
Substance,target,test,system,setting,how to read,quantity,value
CGCCTGTTACGGCATCAGGGCTTTGGTTTGGGATGGCTGCTTGTGTACCAATTGTTCCGGCGGTATGAC,"FOXP2 N303T/S325N N-truncated, polyQ removed",MITOMI,"double-stranded DNA, one strand shown, in vitro","69-bp whole dsDNA, apparent Ka, titration fit","relative to: unmutated reference site, higher = stronger binding",relative association constant,0.118 fold
P1 S460G,"inorganic phosphate, free oxyanion",microfluidic competitive inhibition,"in vitro, cell-free expressed","derived from inhibition constants, unchanged parent 615000 nM",lower = stronger binding,phosphate dissociation constant,407 µM
CGCCTGTTACGGCATCAGGGCTTTGGTTTGGGATGGCTGCGTGTTTACCAATTGTTCCGGCGGTATGAC,"FOXP2 N303T/S325N N-truncated, polyQ removed",MITOMI,"double-stranded DNA, one strand shown, in vitro","69-bp whole dsDNA, apparent Ka, titration fit","relative to: unmutated reference site, higher = stronger binding",relative association constant,0.395 fold

# Excerpt of the above (block 2):
Variant,binding free energy change [kcal/mol]
G32W,0.2
S70G,-0.0107
Q10G,-0.181
